Measurements pooled from the literature.
Parts stem from different laboratories: compare values within a part only.
Chain of UniProt P23946 (whole entry, looked up): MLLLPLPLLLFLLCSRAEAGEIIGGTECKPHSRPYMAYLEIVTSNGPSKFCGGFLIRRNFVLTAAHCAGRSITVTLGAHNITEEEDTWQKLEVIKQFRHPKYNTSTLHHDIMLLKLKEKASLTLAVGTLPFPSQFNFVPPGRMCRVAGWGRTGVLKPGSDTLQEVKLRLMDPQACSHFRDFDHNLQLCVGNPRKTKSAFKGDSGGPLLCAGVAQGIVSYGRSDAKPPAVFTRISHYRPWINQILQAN

Series 1
Target: Delta-type opioid receptor (OPRD1, Homo sapiens, UniProt P41143)
Chain of UniProt P41143 (whole entry, looked up): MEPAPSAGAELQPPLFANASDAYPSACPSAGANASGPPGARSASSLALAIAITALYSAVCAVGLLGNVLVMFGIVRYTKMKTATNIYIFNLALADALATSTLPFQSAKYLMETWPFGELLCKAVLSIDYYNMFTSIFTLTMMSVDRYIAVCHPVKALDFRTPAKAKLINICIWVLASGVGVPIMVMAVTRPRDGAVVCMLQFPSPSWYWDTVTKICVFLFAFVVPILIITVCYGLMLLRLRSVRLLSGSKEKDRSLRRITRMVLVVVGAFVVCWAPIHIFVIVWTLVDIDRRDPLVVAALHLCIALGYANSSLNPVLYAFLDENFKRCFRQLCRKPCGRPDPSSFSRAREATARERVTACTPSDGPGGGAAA
Read-out: binding
Technique: radioligand binding
Tested at: 10 µM
| Structure (SMILES) | inhibition |
| --- | --- |
| O[C@]1(C(F)(F)F)CCCC[C@H]1Nc1ccc(F)cc1 | 21.4% |
| O=C([C@H]1C[C@H](O)CN1c1ccc(Cl)cc1)N1CC2COCC(C1)N2Cc1ccc(Cl)cc1 | -15% |
| COCc1nc2cnc3cc(-c4c(C)noc4C)c(OC[C@H]4CCNC4)cc3c2n1[C@H](C)c1ccccc1 | 38.5% |
| CNC(=O)Nc1ccc2c(c1)[C@]1(CC2)OC(=O)N(CC(=O)N(Cc2ccc(F)cc2)[C@@H](C)C(F)(F)F)C1=O | -10.6% |

Series 2
Cell line: HEK-293T-ACE2
Tested at: concentration not given
Baseline: vehicle
| SMILES | cell number [%] |
| --- | --- |
| O=C(O)CCCN1CCC(O[C@@H](c2ccc(Cl)cc2)c2ccccn2)CC1.O=S(=O)(O)c1ccccc1 | 101 |
| CCCC(CCC)C(=O)[O-].[Na+] | 101 |
| Br.CN1[C@@H]2CC[C@H]1C[C@@H](OC(=O)C(O)c1ccccc1)C2 (stereo partly shown) | 102 |
| CN(C)CCC(c1ccc(Br)cc1)c1ccccn1.O=C(O)/C=C\C(=O)O (stereo not shown) | 105 |

Mixed results
| SMILES | tested on | test system | setting | measurement | value |
| --- | --- | --- | --- | --- | --- |
| CCN(CC)CCCOC(=O)C(OC(C)C)(c1ccccc1)c1ccccc1 |  | human, microsomes or S9 | 2 µM, 0.5 h | remaining compound | 59.8% |
| CC(C)C[C@H](NC(=O)[C@@H](NC(=O)N[C@@H](Cc1ccccc1)C(=O)O)[C@@H]1CCN=C(N)N1)C(=O)N[C@H](C=O)Cc1ccccc1 | Chymase (CMA1, Homo sapiens, UniProt P23946) |  |  | IC50 | 14.3 nM |

A few entries again (series 1):
| Structure (SMILES) | inhibition |
| --- | --- |
| O=C([C@H]1C[C@H](O)CN1c1ccc(Cl)cc1)N1CC2COCC(C1)N2Cc1ccc(Cl)cc1 | -15% |
